Published values pooled from the literature.
Lines come from different studies, so protocols differ. “And” joins repeats or separate records; there may be more than shown. ± marks the error that the study gave.

SMILES | assay | system | conditions | how to read | measurement | value
OC1(C(F)(F)F)CCN(c2nc(Nc3ccnc(C(F)(F)F)c3)nc(-c3cccc(C(F)(F)F)n3)n2)C1 (centres unmarked) |  | Sprague-Dawley rat, both sexes, plasma | oral gavage, 5 mg/kg |  | AUC(0-24 h) | 3720 ± 485 ng·h/mL
COc1cccc(OC)c1-c1cc(C(=O)NC2(C(=O)O)C3CC4CC(C3)CC2C4)nn1-c1ccc(C(=O)N(C)CCOCCOCCN(C)C(=O)[C@H](CCCCNC(=O)[C@H](CC(C)C)NC(=O)C2OC2C(=O)O)NC(=O)CN2CCN(CC(=O)[O-])CCN(CC(=O)[O-])CCN(CC(=O)[O-])CC2)cc1C(C)C.[177Lu+3] (mixture of isomers) |  | mouse, HT-29 xenograft | 24 h post injection, biodistribution | reference: tumour over bone uptake | tumour-to-bone ratio | 2.66
C=CC(=O)Nc1cc(Nc2nccc(-c3c[nH]c4ccccc34)n2)c(OC)cc1N(C)CCN(C)C | storage stability | human dried blood spots | 5 h, -80 °C, medium QC level |  | recovery | 93.2%
COc1ccc2c(c1)CN(C(=O)CCN1CCC(Cc3ccccc3)CC1)CCS2 |  | human plasma | 7500 ng/mL |  | fu | 0.071
CC(C)(O)Cn1nc(-c2ccccc2)c2c(Cl)c(-c3ccccc3)nnc21 |  | mouse juvenile P20, plasma | intraperitoneal, 30 mg/kg |  | AUC | 5.94 µM·h
N#Cc1cccc(N2CN(CC(=O)NCC(F)(F)F)C(=O)C23CCN(C(=O)c2cnc4[nH]ncc4c2)CC3)c1 |  | mouse liver microsomes |  |  | CLint | 37 µL/min/mg protein
CCNC(=S)NN=Cc1c2ccccc2cc2ccccc12.Cc1ccc(C(C)C)cc1.[Cl][Ru+] | UV-Vis spectrophotometry |  | 298 K, 50 mM NaCl |  | aquation rate constant | 0.0012 ± 0.0002 s⁻¹
COC1C=COC2(C)Oc3c(C)c(O)c4c(c3C2=O)C2=NC3(CCN(CC(C)C)CC3)NC2=C(NC(=O)C(C)=CC=CC(C)C(O)C(C)C(O)C(C)C(OC(=O)Nc2cccnn2)C1C)C4=O (centres unmarked) |  | CD-1 mouse, plasma | oral, dose not given, efficacy dose |  | AUC | 84200 ng·h/mL
CN1CCC[C@]1(C)/C=C/S(=O)(=O)NC(=O)Nc1c2c(cc3c1CCC3)CCC2 | item: Pyrexia, possibly related | human | oral, 12.5 mg twice daily, 14 days, multiple ascending dose |  | subjects with adverse event | 0%
Cc1ncsc1-c1ccc(CNC(=O)[C@@H]2C[C@@H](O)CN2C(=O)[C@@H](NC(=O)COCC(C)(COCCOCCOCCNC(=O)C[C@@H]2N=C(c3ccc(Cl)cc3)c3c(sc(C)c3C)-n3c(C)nnc32)COCCOCCOCCNC(=O)C[C@@H]2N=C(c3ccc(Cl)cc3)c3c(sc(C)c3C)-n3c(C)nnc32)C(C)(C)C)cc1 |  | male C57BL/6 mice, plasma | intravenous, 5 mg/kg, 2 h, sample diluted 20-fold |  | plasma concentration | 2320 ng/mL
C=C1C[C@]2(C(=O)OC)C=C(C(=O)Nc3cccc(C(=O)Nc4ccc(Nc5nccc(-c6cccnc6)n5)c(C)c4)c3)C(=O)[C@H]1C2 |  | Wistar rat, male, plasma | 10 µM, 5 min |  | compound remaining | 29.4% and 27.2%
CC(=O)N([O-])CCCCCNC(=O)CCC(=O)N([O-])CCCCCNC(=O)CCC(=O)N([O-])CCCCCN.[89Zr+4] | radio-TLC | aqueous buffer | 1 d, pH 7, 37 °C, 89Zr-labelled complex, added: DTPA 1000-fold excess |  | intact complex | 92.6 ± 0.6%
CCN(CC)c1ccc2c(c1)O[B-]1(c3ccccc3C#N)OC(=O)C(c3ccccc3)=N[N+]1=C2 (centres unmarked) |  | toluene |  |  | fluorescence emission maximum | 515 nm
C=CC(=O)Nc1cc(Nc2nccc(-c3cn(C)c4ccccc34)n2)c(OC)cc1N(C)CCNC | storage stability | human plasma | 10 d, -80 °C, LQC level |  | recovery | 102%
CNC(=O)c1ccc([C@H]2[C@@H](F)[C@@H](F)C[C@@H](F)[C@H]2F)cc1 | hepatocyte stability | cryopreserved rat hepatocytes | 1 µM |  | hepatic clearance | 10 mL/min/kg
COc1ccc(Nc2nc(Nc3ccc(OCCOCC[18F])cc3)ncc2Br)cc1 |  | ICR mice, S180 tumour | intravenous, 370 kBq, 60 min | reference: tumour over bone | uptake ratio | 1
O=C(NC1CCC(F)(F)CC1)C(c1cncnc1)N(C(=O)C(F)Cl)c1ccc(OC(F)(F)F)cc1 (centres unmarked) |  | human liver microsomes | concentration not given, pH 7.4 |  | CLint | < 9.6 µL/min/mg
O=C(c1ccc(-c2ccccc2)cc1)N1CCCCC1 | metabolic stability | human, liver microsomes | 2 µM, 40 min, pH 7.4 |  | compound remaining | 84%
COc1cccc(OC)c1-c1cc(C(=O)NC2(C(=O)O)C3CC4CC(C3)CC2C4)nn1-c1ccc(C(=O)NCCNC(=O)[C@H](CCCCNC(=O)[C@H](CC(C)C)NC(=O)C2OC2C(=O)O)NC(=O)CN2CCN(CC(=O)[O-])CCN(CC(=O)[O-])CCN(CC(=O)[O-])CC2)cc1C(C)C.[177Lu+3] (mixture of isomers) |  | mouse, HT-29 xenograft, spleen | 168 h post injection |  | tissue uptake | 0.9 %ID/g

SMILES | assay | system | conditions | how to read | measurement | value
O=C(Nc1ccc(C2CCCCC2)cc1)C1CC1 | liver microsome stability | human liver microsomes | 1 µM, without NADPH |  | hepatic clearance | 11 mL/min/kg
Cc1cc(C)n(CCN(CCN)CCCCCCNC(=O)[C@@H](N)Cc2c[nH]cn2)n1.[99Tc+].[C-]#[O+].[C-]#[O+].[C-]#[O+] |  | BALB/c nude mice A549 xenograft | intravenous, 4 h |  | excretion | 23.1 ± 3.4 % injected activity
O=C(Nc1cnccc1-c1ccc([18F])cc1)c1ccnc(NC(=O)C2CC2)c1 | ex vivo gamma counting | GSK-3β transgenic mice, early-stage, left kidney | intravenous, 120 min |  | mean SUV | 0.28
O=C(N1CCCCC1)C12CC(c3ccccc3)(C1)C2(Br)Br | metabolic stability | human, liver microsomes | 2 µM, 40 min, pH 7.4 |  | compound remaining | 11%
Cc1ccc(OCC(=O)N(Cc2cccs2)c2ccn[nH]2)cc1 |  | male Gottingen pig liver microsomes | 10 µM, 60 min, without NADPH |  | remaining compound | 77.2%
CCC1CNC(CC)CN(C(C(=O)[O-])c2ccc(C(=O)[O-])cc2)C(CC)CN(CC(=O)[O-])C(CC)CN1.[Mn+2] (centres unmarked) | ICP-MS | BALB/c mice, intestine | intravenous, 0.05 mmol/kg, 30 min | reference: injected dose | Mn uptake | 6.43 ± 5.61%
COc1ccc2c(c1)O[B-]1(c3ccccc3)OC(=O)C(c3ccccc3)=N[N+]1=C2 (centres unmarked) |  | toluene |  |  | fluorescence quantum yield | 0.12
O=C(Nc1cnccc1-c1ccc([18F])nc1)c1ccnc(NC(=O)C2CC2)c1 |  | FVB/NJ mouse, both sexes, liver | intravenous, 40 min |  | SUV | 8.66
CN(C)C(=O)CNC(=O)c1ccc(C2CCCCC2)cc1 | liver microsome stability | human liver microsomes | 1 µM, without NADPH |  | hepatic clearance | 7 mL/min/kg
Cn1ncc2cc(CN3CCC(F)(F)C(COc4ccc(C#N)cc4)C3)ccc21 (centres unmarked) | equilibrium dialysis | mouse plasma |  |  | fu | 0.007
C=Cc1ccccc1[B-]12OC(=O)C(c3ccccc3)=N[N+]1=C(C)c1ccc(N(CC)CC)cc1O2 (centres unmarked) |  | toluene |  |  | fluorescence emission maximum | 509 nm
C/C(N)=N/C(=N\S(=O)(=O)c1ccc(C(F)(F)F)cc1)N1C[C@H](c2ccccc2)C(c2ccc(Cl)cc2)=N1 |  | beagle dog, plasma | oral, 18 mg/kg |  | AUC(0-inf) | 25200 ng·h/mL
C=C(NC(=O)c1csc(-c2nc3c(cc2O)-c2nc(cs2)C(=O)NC(C(C)O)C(=O)NC(=C(C)OC)c2nc(cs2)C(=O)NC2c4nc(cs4)C(=O)NC(COC(=O)c4c5c6c(cccc6n4O)COC(=O)C(OC4CC(C)(O)C(N(C)C)C(C)O4)C2OC5)c2nc-3cs2)n1)C(N)=O (centres unmarked) |  | cynomolgus monkey, both sexes, plasma | intravenous infusion, 3 mg/kg multiple doses, day 7 |  | Cmax | 19100 ng/mL
Cc1noc(C)c1Cn1cc(N2C(=O)CN(Cc3cccc(OS(=O)(=O)O)c3)C2=O)cn1 |  | rat Sprague-Dawley male, plasma | intravenous, 1 mg/kg of parent drug, 0.25 h |  | plasma concentration | 2660 ng/mL
Cc1cc(-c2ccc(C(=O)[C@@H]3CCCC[C@H]3C(=O)Nc3cnn4c3C(=O)NCC4)cc2)[nH]n1 |  | human, urine | oral, 200 mg, 0-24 h | reference: dose | cumulative recovery of radioactivity | 5.37%
COc1cccc(OC)c1-c1cc(C(=O)NC2(C(=O)O)C3CC4CC(C3)CC2C4)nn1-c1ccc(C(=O)N(C)CCCN(C)C(=O)[C@H](CCCCNC(=O)[C@H](CC(C)C)NC(=O)C2OC2C(=O)O)NC(=O)CN2CCN(CC(=O)[O-])CCN(CC(=O)[O-])CCN(CC(=O)[O-])CC2)cc1C(C)C.[177Lu+3] (mixture of isomers) |  | mouse, HT-29 xenograft | 24 h post injection, biodistribution | reference: tumour over kidney uptake | tumour-to-kidney ratio | 0.45
O=C(CN1CCCCC1)Nc1ccc([C@H]2[C@@H](F)[C@@H](F)C[C@@H](F)[C@H]2F)cc1 |  | human liver microsomes | 1 µM, without NADPH |  | hepatic clearance | 3.9 mL/min/kg
COc1cccc(OC)c1-c1cc(C(=O)NC2(C(=O)O)C3CC4CC(C3)CC2C4)nn1-c1ccc(C(=O)N(C)CCOCCN(C)C(=O)[C@H](CCCCNC(=O)[C@H](CC(C)C)NC(=O)C2OC2C(=O)O)NC(=O)CN2CCN(CC(=O)[O-])CCN(CC(=O)[O-])CCN(CC(=O)[O-])CC2)cc1C(C)C.[177Lu+3] (mixture of isomers) |  | mouse, HT-29 xenograft | 4 h post injection, biodistribution | reference: tumour over kidney uptake | tumour-to-kidney ratio | 0.31
O=C(CN1CCOCC1)Nc1ccc(C2CCCCC2)cc1 | hepatocyte stability | cryopreserved mouse hepatocytes | 1 µM |  | hepatic clearance | 78 mL/min/kg

Repeated from above:
SMILES | assay | system | conditions | how to read | measurement | value
CCN(CC)c1ccc2c(c1)O[B-]1(c3ccccc3C#N)OC(=O)C(c3ccccc3)=N[N+]1=C2 (centres unmarked) |  | toluene |  |  | fluorescence emission maximum | 515 nm
O=C(Nc1ccc(C2CCCCC2)cc1)C1CC1 | liver microsome stability | human liver microsomes | 1 µM, without NADPH |  | hepatic clearance | 11 mL/min/kg
CC(C)(O)Cn1nc(-c2ccccc2)c2c(Cl)c(-c3ccccc3)nnc21 |  | mouse juvenile P20, plasma | intraperitoneal, 30 mg/kg |  | AUC | 5.94 µM·h
O=C(NC1CCC(F)(F)CC1)C(c1cncnc1)N(C(=O)C(F)Cl)c1ccc(OC(F)(F)F)cc1 (centres unmarked) |  | human liver microsomes | concentration not given, pH 7.4 |  | CLint | < 9.6 µL/min/mg
N#Cc1cccc(N2CN(CC(=O)NCC(F)(F)F)C(=O)C23CCN(C(=O)c2cnc4[nH]ncc4c2)CC3)c1 |  | mouse liver microsomes |  |  | CLint | 37 µL/min/mg protein
